Measurements of several laboratories.
Each numbered part is a random draw from the data of one study; scales do not carry over between parts. Changes are numbered by the printed parent chain.

Study 1
Target: Ras GTPase-activating protein-binding protein 1, C-terminal RGG region (G3BP1, Homo sapiens, UniProt Q13283)
Sequence of UniProt Q13283 (whole entry, looked up): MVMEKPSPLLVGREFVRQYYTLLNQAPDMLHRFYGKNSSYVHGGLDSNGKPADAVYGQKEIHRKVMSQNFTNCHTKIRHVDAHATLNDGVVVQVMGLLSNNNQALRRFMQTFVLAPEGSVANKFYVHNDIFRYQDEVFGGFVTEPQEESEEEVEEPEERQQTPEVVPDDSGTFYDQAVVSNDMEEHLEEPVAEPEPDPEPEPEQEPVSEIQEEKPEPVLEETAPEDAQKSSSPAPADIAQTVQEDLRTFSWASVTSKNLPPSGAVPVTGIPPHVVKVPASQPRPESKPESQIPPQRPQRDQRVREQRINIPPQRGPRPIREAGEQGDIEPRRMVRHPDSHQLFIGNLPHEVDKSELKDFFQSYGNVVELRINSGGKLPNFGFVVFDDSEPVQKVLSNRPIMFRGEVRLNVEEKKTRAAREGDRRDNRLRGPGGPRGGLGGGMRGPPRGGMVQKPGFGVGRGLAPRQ
Method: RNA Bind-n-Seq
Molecule type: RNA
Medium: in vitro
Concentration: 1 µM
Setting: whole 134-nt RNA, ends assumed
Added: 150 mM KCl
Baseline: input library
Direction: higher = stronger binding
All sequences stand within: GGGAGUUCUACAGUCCGACGAUC … UGGAAUUCUCGGGUGUCAAGG
Strand	log2 enrichment
CAAGUCCUGUGCUACACAUCGUAUGUACCGAAUCGGAAAGGGAAAGGGGAAAGGGGAAAGUAUUAUGUUACGCCGUUCGGAUCUGCACUU	-0.943
CCUCAAGUCCUGUGCUACACAUCGUAUGUACCGAAUCGGGGAGGAGGGGAGGGAAAGUAUUAUGUUACGCCGUUCGGAUCUGCACUUCCA	0.455
AGUCCUGUGCUACACAUCGUAUGUACCGAAUCGGGGUGGGGAAAAAAAGGGGUGGGGAAAGUAUUAUGUUACGCCGUUCGGAUCUGCACU	1.68
GCAGGAAGUAAAAACAAAUGGAAAUGCUUCGGAUAGUGGCAGGGGUGGGGGUUGCUAAGGAAAGGGUAAAAUGGGAGUGGGUAAAGAGUU	1.6
AAGUCCUGUGCUACACAUCGUAUGUACCGAAUCGGUUUUGGGGUUUUGGGUUUUGGGAAAGUAUUAUGUUACGCCGUUCGGAUCUGCACU	-0.544
CUCAAGUCCUGUGCUACACAUCGUAUGUACCGAAUCGGGGCCGGCCGGGCCGGGAAAGUAUUAUGUUACGCCGUUCGGAUCUGCACUUCC	-1.33
UAGGUAAGAAAGUACUCAUUGUCUAUGCACACCAGGAACCCAAGUCUUUCAACGGAUCCUUGAAGAAUGUGGCUGUAGAUGAACUGAGCA	-0.731
CUGUGCUACACAUCGUAUGUACCGAAUCGGGGAAAAAGGGGUUUUUGGGGAAAAAAAGGGGAAAGUAUUAUGUUACGCCGUUCGGAUCUG	0.194
GUCCUGUGCUACACAUCGUAUGUACCGAAUCGGGUUUGGGAAAAAGGGAAAAAAAGGGAAAGUAUUAUGUUACGCCGUUCGGAUCUGCAC	-0.04

Study 2
Target: CCND3, cyclin fold, Cln2 fusion (human)
Method: yeast growth competition, sequencing
Medium: yeast
Setting: weak parent motif
Baseline: not given
Direction: higher = stronger binding
Starting sequence: RBL1 docking peptide (human); GSAKRRLFGEDPP
Substitution	normalised enrichment score
GSAKRRLFGEDQP [P12Q]	0.137
GSAKRRLQGEDPP [F8Q]	0.113
GSAKRRLFGEDPM [P13M]	0.0428
GSAKRRNFGEDPP [L7N]	0.215
GSAKRRLFGKDPP [E10K]	0.145
GSAKRTLFGEDPP [R6T]	0.122
GSGKRRLFGEDPP [A3G]	0.115
GSHKRRLFGEDPP [A3H]	0.0646
GSNKRRLFGEDPP [A3N]	0.0693
GSAKRRLFGPDPP [E10P]	0.129
GSAKRRLFGEDPE [P13E]	0.024
GSAKRRLFGETPP [D11T]	0.156
ASAKRRLFGEDPP [G1A]	0.188
GSAKRRAFGEDPP [L7A]	0.0621
WSAKRRLFGEDPP [G1W]	0.142
GSAKRRLFGHDPP [E10H]	0.175
GSWKRRLFGEDPP [A3W]	0.166
GSAKRRLFNEDPP [G9N]	0.1
GSAKRALFGEDPP [R6A]	0.131
GSAKRRLDGEDPP [F8D]	0.197
GSAKRRGFGEDPP [L7G]	0.192
GSAKRRLNGEDPP [F8N]	0.15
HSAKRRLFGEDPP [G1H]	0.159
GSAKRRLFGEDKP [P12K]	0.153
LSAKRRLFGEDPP [G1L]	0.18

Study 3
Target: Sal-like protein 4, full length isoform A (SALL4, Homo sapiens, UniProt Q9UJQ4, residues 1-1053)
Sequence of UniProt Q9UJQ4 (whole entry, looked up): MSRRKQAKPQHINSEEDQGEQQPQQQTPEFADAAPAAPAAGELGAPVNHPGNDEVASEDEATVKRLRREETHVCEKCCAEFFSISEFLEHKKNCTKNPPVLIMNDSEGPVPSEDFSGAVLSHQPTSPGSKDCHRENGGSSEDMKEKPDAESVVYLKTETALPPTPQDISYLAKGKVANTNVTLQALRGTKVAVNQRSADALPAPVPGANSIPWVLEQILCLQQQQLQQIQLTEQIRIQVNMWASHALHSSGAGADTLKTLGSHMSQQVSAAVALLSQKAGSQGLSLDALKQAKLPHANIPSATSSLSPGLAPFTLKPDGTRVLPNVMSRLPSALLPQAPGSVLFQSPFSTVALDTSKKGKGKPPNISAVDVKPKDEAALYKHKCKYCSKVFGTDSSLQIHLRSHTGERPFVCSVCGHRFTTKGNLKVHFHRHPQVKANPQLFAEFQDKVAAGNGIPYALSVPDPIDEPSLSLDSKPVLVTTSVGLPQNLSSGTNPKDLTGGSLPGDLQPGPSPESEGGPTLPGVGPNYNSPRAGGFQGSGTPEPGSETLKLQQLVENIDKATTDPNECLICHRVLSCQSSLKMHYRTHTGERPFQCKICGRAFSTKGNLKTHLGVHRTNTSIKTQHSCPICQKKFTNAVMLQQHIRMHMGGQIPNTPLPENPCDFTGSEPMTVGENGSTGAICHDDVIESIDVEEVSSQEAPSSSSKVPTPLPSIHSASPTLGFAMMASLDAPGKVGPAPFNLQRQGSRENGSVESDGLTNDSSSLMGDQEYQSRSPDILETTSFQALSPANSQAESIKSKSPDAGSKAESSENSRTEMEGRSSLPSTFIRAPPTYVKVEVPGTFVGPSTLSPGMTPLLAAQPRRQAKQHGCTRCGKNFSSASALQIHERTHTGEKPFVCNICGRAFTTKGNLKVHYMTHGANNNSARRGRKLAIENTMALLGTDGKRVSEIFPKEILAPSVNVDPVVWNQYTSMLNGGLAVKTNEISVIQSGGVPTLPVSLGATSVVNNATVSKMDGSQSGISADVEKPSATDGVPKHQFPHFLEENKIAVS
Method: universal PBM
Molecule type: double-stranded DNA, one strand shown
Medium: in vitro
Concentration: 600 nM
Setting: 8-mer, flanks averaged, mean of replicates
Direction: higher = stronger binding
Strand	E-score
GCGGCACC	-0.31
CTTCCGGA	-0.153
CGTTGTAA	0.0733
ACTGAATA	0.298
GGGTGTAC	-0.0928
AATGAGTA	0.324
ACAGGGTA	-0.0636
AGAGCCCC	-0.354
GAACTTCA	0.077
ATGGGCAC	-0.093
GGGTCAAC	-0.173
CCGCCGCG	-0.336
ATAAGAAC	0.304
GCGCCGTA	-0.243
AACTGTAC	0.0631
CGTGACTC	-0.178
ACCAAGCG	-0.213
ATCGACCG	-0.121
AATCTGTA	0.144
GTTAAACA	0.223
AGATCGTC	-0.137

Study 4
Target: RNA binding protein fox-1 homolog 2, RRM domain, GST-SBP tag (RBFOX2, Homo sapiens, UniProt O43251-10, residues 100-194)
Method: RNA Bind-n-Seq
Molecule type: RNA
Medium: in vitro
Concentration: 365 nM
Setting: natural RNA segment, single round, ends assumed
Baseline: no-protein control
Direction: higher = stronger binding
All sequences stand within: GGGAGUUCUACAGUCCGACGAUC … UGGAAUUCUCGGGUGCCAA
Construct (chain): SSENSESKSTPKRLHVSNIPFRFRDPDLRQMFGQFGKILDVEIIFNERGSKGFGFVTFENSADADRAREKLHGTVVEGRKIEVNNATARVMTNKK
Strand	RBNS enrichment (R)
UGAAAUGAAACACUCACUAUAUAAACCACACUUGCCUCACAGAGAUCCUCCUGCCUCUGUCUCCUGAAUGUUGGGACAAAAGUAUGUGCCACCCCUACCCAGCGAGAACA	0.931
UUUAUGGAGCCUCCAGAACAGAUGCCAUCUUCCUGAAUGUUGACAUGCCAGUGGGUGUGACUCCUUCAUUUUUCCUUCUCCCUUCCCUUUGGACAGUGUUACAGUGAACA	0.433
CUUAUAAAUGGGGACGUAUUGGAGAAGGAAAUACAUAGACCUACAACUUUGAGCAAAUAGCAGUGAUGUUUUAGGAACUGAAAUGUCACACUUAAAGUCUUCAGCCCAGC	0.343
UUUCCACCUCACUGUCUCCAUCCUCCACCUCUGAGAUGGACACUUAAGAGACGGGGCAAAUGUGGAUCCAAGAAACCAGGGCCAUGACCGGGUCCACUGUGGAGCAGCCA	0.252
CACUAUGUCCCAGUCUUCUCAUGUGACCUCAGCCUGAACCCUGUGGAGACCUCCUCUGGCCAGGGGGCCACUGGUGUCCUCACUGUGUUGGGAUUCUGUUAUCCCUGAUA	0.353
UGCUUCUUUAUGCUUUUUCAUUUAAAACAUGUUUUAAAGCAUAUUCUCACUGAGUCUAUUGUUUGUCUUCACAUUGCUGAUGGAACGAAAUGUUGACACUCAGUGAUGUG	0.331
GAGGCACGAGGUUACUGUGAUUGAUAGGAAAGAUAAAAAUGAUGUCUGUUUUUGUAGACGAAUAACCAUCAACAUGACAACAAAAUUCAUUGGGGUCUACCAGCGUGCAU	0.458
ACUCUGAGAAUGUUUCCAAGUGAGAGUCACUUUCUUGACCCUCAAGAGAAGCUAGACGACACAGAAGAACCUUAAUGGACAGUGUACCCAUGCUUGAUCUGUCUCACACC	0.513

Repeated from above (study 3):
Strand	E-score
GCGGCACC	-0.31
CTTCCGGA	-0.153
CGTTGTAA	0.0733
ACTGAATA	0.298
GGGTGTAC	-0.0928
AATGAGTA	0.324
ACAGGGTA	-0.0636
AGAGCCCC	-0.354
